{"data": "Measurements from different studies", "TBK1 residues 1-657 S172A": "TBK1 residues 1-657 S172A (Homo sapiens, UniProt Q9UHD2)", "KARS1 66-597 del1-65": "KARS1 66-597 del1-65 (Homo sapiens, UniProt Q15046)", "csn2 full length assumed": "csn2 full length assumed (Streptococcus agalactiae, UniProt E7S4M0)", "B1": "STING1 155-379 K370A (Homo sapiens, UniProt Q86WV6); chain VAHGLAWSYYIGYLRLILPELQARIRTYNQHYNNLLRGAVSQRLYILLPLDCGVPDNLSMADPNIRFLDKLPQQTGDHAGIKDRVYSNSIYELLENGQRAGTCVLEYATPLQTLFAMSQYSQAGFSREDRLEQAKLFCRTLEDILADAPESQNNCRLIAYQEPADDSSFSLSQEVLRHLRQEEKEEVTVGSLKTSAVPSTSTMSQEPELLISGMEAPLPLRTDFS", "B2": "dmaW (Aspergillus fumigatus, UniProt Q50EL0); chain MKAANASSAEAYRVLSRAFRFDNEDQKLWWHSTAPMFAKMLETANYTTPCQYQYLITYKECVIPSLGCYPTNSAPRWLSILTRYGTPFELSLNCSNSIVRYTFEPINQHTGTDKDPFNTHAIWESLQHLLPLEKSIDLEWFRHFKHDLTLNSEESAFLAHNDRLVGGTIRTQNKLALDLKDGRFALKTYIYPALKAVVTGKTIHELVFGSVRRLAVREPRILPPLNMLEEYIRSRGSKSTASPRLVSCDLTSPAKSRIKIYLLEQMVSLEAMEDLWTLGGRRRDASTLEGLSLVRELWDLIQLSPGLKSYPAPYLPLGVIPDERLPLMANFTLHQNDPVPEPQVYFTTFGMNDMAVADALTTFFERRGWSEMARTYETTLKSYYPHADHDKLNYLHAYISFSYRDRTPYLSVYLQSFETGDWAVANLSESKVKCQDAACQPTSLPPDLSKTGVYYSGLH", "B3": "STING1 155-379 S379A (Homo sapiens, UniProt Q86WV6); chain VAHGLAWSYYIGYLRLILPELQARIRTYNQHYNNLLRGAVSQRLYILLPLDCGVPDNLSMADPNIRFLDKLPQQTGDHAGIKDRVYSNSIYELLENGQRAGTCVLEYATPLQTLFAMSQYSQAGFSREDRLEQAKLFCRTLEDILADAPESQNNCRLIAYQEPADDSSFSLSQEVLRHLRQEEKEEVTVGSLKTSAVPSTSTMSQEPELLISGMEKPLPLRTDFA", "note": "Lines come from different studies, so protocols differ. ± gives the spread as reported.", "sequence of UniProt Q15046 (whole entry, unmodified, looked up)": "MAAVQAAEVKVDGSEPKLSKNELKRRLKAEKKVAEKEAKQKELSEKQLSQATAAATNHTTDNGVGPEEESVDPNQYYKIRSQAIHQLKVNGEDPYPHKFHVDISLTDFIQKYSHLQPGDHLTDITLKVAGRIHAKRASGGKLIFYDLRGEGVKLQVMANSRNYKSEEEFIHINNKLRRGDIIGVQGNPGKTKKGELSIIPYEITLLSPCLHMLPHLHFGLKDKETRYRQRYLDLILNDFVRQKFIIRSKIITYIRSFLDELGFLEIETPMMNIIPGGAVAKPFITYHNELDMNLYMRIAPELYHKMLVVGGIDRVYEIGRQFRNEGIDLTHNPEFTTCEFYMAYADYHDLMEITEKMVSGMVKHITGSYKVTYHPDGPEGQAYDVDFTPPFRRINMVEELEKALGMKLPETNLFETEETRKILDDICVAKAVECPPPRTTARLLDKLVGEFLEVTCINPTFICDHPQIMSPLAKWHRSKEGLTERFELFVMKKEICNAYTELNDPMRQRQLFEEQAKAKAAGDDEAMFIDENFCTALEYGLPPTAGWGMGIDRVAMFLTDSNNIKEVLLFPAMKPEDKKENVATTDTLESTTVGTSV", "sequence of UniProt P0CAW2 (whole entry, looked up)": "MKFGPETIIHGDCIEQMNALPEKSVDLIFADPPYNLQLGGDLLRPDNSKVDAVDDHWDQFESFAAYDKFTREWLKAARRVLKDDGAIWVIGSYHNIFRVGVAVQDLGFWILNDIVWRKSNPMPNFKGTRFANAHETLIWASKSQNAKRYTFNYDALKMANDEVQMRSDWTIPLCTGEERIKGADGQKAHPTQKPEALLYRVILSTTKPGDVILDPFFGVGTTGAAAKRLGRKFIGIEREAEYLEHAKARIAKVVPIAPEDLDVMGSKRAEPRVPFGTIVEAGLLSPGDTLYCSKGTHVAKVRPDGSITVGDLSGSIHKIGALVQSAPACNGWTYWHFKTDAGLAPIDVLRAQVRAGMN"}
{"Molecule": "B1 (STING1 155-379 K370A)", "tested on": "TBK1 residues 1-657 S172A", "assay": "SPR", "setting": "read off a plot, together with: cGAMP 1 µM", "quantity": "Kd", "result": "17 µM"}
{"Molecule": "GGCUCUGGUAACUAGAGAUCCCUCAGACCACUCUAGACGGUAUAUAUAUAUGUAAAAAUAUAUAUAUAUCUCUAGCAGUGGCGCCCGAACAGGGACUUUAAAGUGAAAGUAACAGGGA (structured RNA)", "tested on": "KARS1 66-597 del1-65", "assay": "fluorescence anisotropy", "system": "folded RNA", "quantity": "binding", "result": "binds"}
{"Molecule": "B2 (dmaW)", "tested on": "C/C=C/C=C(\\C)COP(=O)(O)OP(=O)(O)O", "assay": "steady-state kinetics", "setting": "pH 7.5, 35 °C", "quantity": "kcat/Km", "result": "200 ± 33.3 M⁻¹ s⁻¹"}
{"Molecule": "ATTTAAGATATCTTAAAT (dsDNA)", "tested on": "repressor C2 1-216 N46S (Salmonella phage P22, UniProt P69202)", "assay": "filter binding", "system": "double-stranded DNA, one strand shown", "setting": "NaCl 50 mM", "quantity": "Kd", "result": "0.0504 µM"}
{"Molecule": "GGCUCUGGUAACUAGAGAUCCCUCAGACCAUGAGAAUGGCGCCCGAACAGGGACUUUAAAGUGAAAGUAACAGGGA (structured RNA)", "tested on": "KARS1 66-597 del1-65", "assay": "fluorescence anisotropy", "system": "folded RNA", "quantity": "binding", "result": "binds"}
{"Molecule": "B3 (STING1 155-379 S379A)", "tested on": "TBK1 residues 1-657 S172A", "assay": "SPR", "setting": "read off a plot, together with: cGAMP 1 µM", "quantity": "Kd", "result": "37 µM"}
{"Molecule": "AAGGCTACCTCTTATTGAGAAGGTGATTT (dsDNA)", "tested on": "mat1-1-1 1-342 (Penicillium chrysogenum, UniProt B1GVB9)", "assay": "EMSA", "system": "double-stranded DNA, one strand shown", "quantity": "binding", "result": "no binding"}
{"Molecule": "GTTTTAGAGCTGTGCTGTTTCGAATGGTTCCAAAAC (ssDNA)", "tested on": "csn2 full length assumed", "assay": "EMSA", "system": "single-stranded DNA", "quantity": "binding", "result": "no binding"}
{"Molecule": "ATTTAAGATATCTTAAAT (dsDNA; 3-deaza-A at 2,3,16,17)", "tested on": "repressor C2 1-216 (Salmonella phage P22, UniProt P69202)", "assay": "filter binding", "system": "double-stranded DNA, one strand shown", "quantity": "binding", "result": "no binding"}
{"Molecule": "ATGATCAGTACGATGTTCACTGTACTCTGACTCGCCTGACATGACTGACGGACTTGCACT (dsDNA; hemimethylated N6-methyladenine)", "tested on": "ccrMIM 1-358 (Caulobacter vibrioides, UniProt P0CAW2)", "assay": "EMSA", "system": "double-stranded DNA, one strand shown", "setting": "together with: sinefungin 60 µM", "quantity": "Kd", "result": "0.075 µM"}
{"Molecule": "DNA 1 GATTACTAAAGCTCAAAAGAAAATTTTCTACGAGGTTTTAGAGCTGTGCTGTTTCGAATGGTTCCAAAAC / DNA 2 AAAACAGACATATCAAGATCTAAAATGTCAGTTTTGGAACCATTCGAAACAGCACAGCTCTAAAACCTCGTAGAAAATTTTCTTTTGAGCTTTAGTAATC (dsDNA; 5' overhang)", "tested on": "csn2 full length assumed", "assay": "EMSA", "system": "double-stranded DNA", "quantity": "binding", "result": "binds"}
